Measurements from different studies.
Each line is one published result; not all experiments were run side by side. Values joined by “and” are separate records of one study, mostly repeats; a detail may differ. ± marks the error that the study gave. ≈ marks a conversion by molar mass, not a printed value.

CC1(C)C(=CC=C2CCCC(C=CC3=[N+](CCCCS(=O)(=O)[O-])c4ccccc4C3(C)C)=C2Cl)N(CCCCCC(=O)O)c2ccccc21  tumour fluorescence per volume (NIR fluorescence imaging; nude mouse, MCF7 xenograft; 17 nmol/mouse, 5 d; relative to: Cy7): ~4 fold
CC(C)c1nc(CN(C)C(=O)N[C@H](C(=O)N[C@@H](Cc2ccccc2)C[C@H](O)[C@H](Cc2ccccc2)NC(=O)OCc2cncs2)C(C)C)cs1  AUC(0-t) arithmetic mean (healthy men, plasma; 600 mg single dose, with: amenamevir 400 mg): 87300 ng·h/mL
O=C(Cc1cccc(OC(F)(F)F)c1)Nc1ccc(CCCCc2nnc(NC(=O)Cc3ccccn3)s2)nn1  Cmin (human patients, plasma; oral, 800 mg three times daily fasted, cycle 1 day 15 steady state): 232 ng/mL
COc1nnc2ccc(N3CCC(c4ccc(OCCN5CCN(C)C(=O)[C@H]5C)cc4)CC3)nn12  clearance (Han Wistar rat, plasma; oral): 2.5 mL/min/kg
CC[C@H](C)[C@H](NC(=O)[C@H](CCCCN)NC(=O)[C@@H]1CCCN1C(C)=O)C(=O)N[C@@H](CCC(=O)O)C(=O)N[C@H](C(=O)N[C@@H](CCCCN)C(=O)N[C@H](C(=O)N[C@@H](CCC(=O)O)C(=O)N1CCC[C@H]1C(N)=O)[C@@H](C)CC)[C@@H](C)CC  viscosity (rotational rheometry; 0.5% w/v aqueous solution; shear rate range 1-1000 s^-1): 1040 ± 31.7 Pa·s
C[C@@H]1O[C@@H](Oc2c(-c3ccc(O)c(O)c3)oc3cc(O)cc(O)c3c2=O)[C@H](O)[C@H](O)[C@H]1O  concentration (human, urine; oral, dose not given, 5 h): 150 ng/mL
Cc1c2oc3c(C)ccc(C(=O)N[C@@H]4C(=O)N[C@H](C(C)C)C(=O)N5CCC[C@H]5C(=O)N(C)CC(=O)N(C)[C@@H](C(C)C)C(=O)O[C@@H]4C)c3nc-2c(C(=O)N[C@@H]2C(=O)N[C@H](C(C)C)C(=O)N3CCC[C@H]3C(=O)N(C)CC(=O)N(C)[C@@H](C(C)C)C(=O)O[C@@H]2C)c(N)c1=O  half-life (mouse, Abcc2−/− knockout, FVB background, liver; intravenous, 0.5 mg/kg): 2.44 h
N=C(N)NC(=O)c1cnn(-c2cccc3ncccc23)c1C1CC1  CLint (CD-1 mouse male, hepatic S9; 1 µM, pH 7.4, with: without NADPH): 297 ± 16 mL/min/kg
CN1C(=O)C(C)(C)Oc2c(-c3cn(C)c(=O)c4[nH]ccc34)cc(S(C)(=O)=O)cc21  steady-state Tmax (human patients, plasma; oral, high-fat meal, median): 6 h
CC(C)=CCC[C@](C)(O[C@@H]1O[C@H](CO[C@@H]2O[C@H](CO)[C@@H](O)[C@H](O)[C@H]2O)[C@@H](O)[C@H](O)[C@H]1O)[C@H]1CC[C@]2(C)[C@@H]1[C@H](O)C[C@@H]1[C@@]3(C)CC[C@H](O[C@@H]4O[C@H](CO)[C@@H](O)[C@H](O)[C@H]4O[C@@H]4O[C@H](CO)[C@@H](O)[C@H](O)[C@H]4O)C(C)(C)[C@@H]3CC[C@]12C  CL/F (Sprague Dawley rat, male, plasma; oral, 86 mg/kg, pure ginsenoside mixture in water): 2.67 ± 0.5 mL/min/kg
CC1=C2C[C@H]3[C@@H](CC[C@@H]4C[C@H](NS(C)(=O)=O)CC[C@@]43C)[C@@H]2CC[C@@]2(C1)O[C@@H]1C[C@H](C)CN[C@H]1[C@H]2C  Tmax (patients, plasma; oral, 210 mg single, day -7, cycle 1): 6 h
CC(C)(Sc1ccncc1-c1ccc(C#N)c2ccccc12)C(=O)O  t1/2 (human, male, Japanese, plasma; oral, 15 mg, day 6, fed, single dose): 6.91 h
CCCOc1ccc([C@H]2CNC(=O)N2c2ccc3[nH]cnc3c2)cc1  apparent terminal half-life (human volunteers fasted, plasma; oral solution, 30 mg single dose, day 1, geometric mean): 2.28 h
CCCC[C@H](NC(C)=O)C(=O)N[C@H]1CCC(=O)NC[C@@H](C(=O)N[C@@H](Cc2c[nH]c3ccccc23)C(N)=O)NC(=O)[C@H](CCCNC(=N)N)NC(=O)[C@@H](Cc2ccccc2)NC(=O)[C@H](Cc2c[nH]cn2)NC1=O  AUC(0-last) (beagle dog, female, plasma; subcutaneous, 8.0 mg/kg daily, day 1): 1560 ng·h/mL
O=C1N=C(N2CCOCC2)CN1c1ccc(Cl)cc1  Tmax (beagle dog, both sexes, plasma; oral, 30 mg/kg, tablets, fasted, day 0): 2.27 h
CNC(=O)c1ccc(-c2cnc3ncc(Cc4ccc5ncccc5c4)n3n2)cc1F  Cmax (geometric mean) (human, mild hepatic impairment (Child-Pugh A), plasma; oral, 200 mg single dose): 1260 ng/mL
C[C@](N)(Cc1ccc(O)c(O)c1)C(=O)O  solubility (supercritical carbon dioxide; 5 h, 343 K, 27 MPa, density 760.3 kg/m3): 367 µg/mL (≈ 1740 µM)
O=C(/C=C/c1ccc(O)c(O)c1)O[C@H](Cc1ccc(O)c(O)c1)C(=O)O  CL/F (UPLC-MS/MS; Wistar rat, microcirculation dysfunction model, plasma; oral, 100 mg/kg Salvia miltiorrhiza stem-leaf extract FS): 2040 ± 173 mL/min/kg
NC(=O)CC[C@@H]1NC(=O)[C@H](Cc2ccccc2)NC(=O)[C@H](Cc2ccc(O)cc2)NC(=O)CCSSC[C@@H](C(=O)N2CCC[C@H]2C(=O)N[C@H](CCCN=C(N)N)C(=O)NCC(N)=O)NC(=O)[C@H](CC(N)=O)NC1=O  reinjection stability (UPLC-MS/MS; processed plasma extract; 156.23 pg/mL, 24 h): 101%
CCNc1[nH]c(=O)n(O)c(=O)c1C(=O)NCc1cccc(Cl)c1F  microsomal CLint (metabolic stability; human, liver microsomes): 850 µL/min/mg
O=C(O)C(F)(F)c1ccccc1Nc1c(Cl)cc(F)cc1Cl  remaining compound (glucuronidation; human liver microsomes; 30 min, with: UDPGA): 105 ± 1.5%
CN(C)C(=N)N=C(N)N  ALT (Sprague-Dawley rat, male, blood; oral, 1500 mg/kg, 6 h): increased
NC1(c2ccc(-c3nc4ccn5c(=O)[nH]nc5c4cc3-c3ccccc3)cc2)CCC1  apparent volume of distribution (human, expansion; oral, 135 mg): 2230 ± 646 L
Cc1cc(Nc2ncc(Cl)c(Nc3ccccc3S(=O)(=O)C(C)C)n2)c(OC(C)C)cc1C1CCNCC1  Css,min (item: total drug; human, plasma; oral, 750 mg/day): 2100 nM and 920 nM and 766 nM
CCc1cc2c(cc1N1CCC(N3CCOCC3)CC1)C(C)(C)c1[nH]c3cc(C#N)ccc3c1C2=O  Vz/F (moderate hepatic impairment patients, plasma, total; oral, 300 mg single dose, fed): 4350 L
Cc1nc2cccc(OCC(C)(C)C(=O)NC(C)C)c2c(N)c1C(=O)O  Cmax (Sprague-Dawley rat, female, plasma; oral gavage, 10 mg/kg, day 1): 34 ± 3.9 ng/mL
CCOc1ccc(Cc2cc([C@@H]3S[C@H](CO)[C@@H](O)[C@H](O)[C@H]3O)c(OC)cc2C)cc1  AUC(0-inf) (human, plasma; oral, 5 mg, single dose, fasted, healthy volunteers): 1830 ng·h/mL
O=C(c1nc2n(n1)[C@H](c1ccccc1)C[C@@H]2F)C1CC1  concentration (human, plasma; oral, 25 mg, 24 h, single dose, fasted, healthy volunteers): 49.1 ng/mL
COc1cccc(CN)c1O  brain concentration (mouse C57BL/6N male, brain; oral drinking water, 10 g/L/day, 1 week): 419000 nM
CC(=O)N[C@H](CCNC(=O)c1cc(NC(=O)c2cc(NC(=O)c3cc(NC(=O)c4nccn4C)cn3C)cn2C)cn1C)C(=O)Nc1cn(C)c(C(=O)Nc2cc(C(=O)Nc3cc(C(=O)Nc4cc(C(=O)NCCCN(C)CCCN[14C](=O)c5cccc([14C](=O)O)c5)n(C)c4)n(C)c3)n(C)c2)n1  tumour concentration (NSG male mouse, LNCaP xenograft, tumour; intraperitoneal, 20 nmol per animal, 24 h after last dose, 3 doses on days 1, 4, 7): 2.5 µM
NCCCC[C@@H]1NC(=O)[C@@H](Cc2c[nH]c3ccccc23)NC(=O)[C@H](c2ccccc2)NC(=O)[C@@H]2C[C@@H](OC(=O)NCCN)CN2C(=O)[C@H](Cc2ccccc2)NC(=O)[C@H](Cc2ccc(OCc3ccccc3)cc2)NC1=O  blood glucose (healthy human volunteers; subcutaneous, 1200 µg, 2 h, post-prandial): 146 mg/dL
CSc1cc(C)nc(SC)c1NC(=O)CN1CCN(CCSc2nc3ccccc3[nH]2)CC1  concentration (mouse Crl:CD1 (ICR) female, olfactory bulb; intranasal repeated, 32.4 µg in 0.01 N HCl, 5 min): 156 ng/g
O=C(CCc1ccccc1)c1cc(F)ccc1OCC(O)CN1CCC(c2ccccc2)CC1 (stereo not shown)  scaled CLint (metabolic stability; human, liver microsomes; 20 µM, pH 7.4): 11.2 mL/min/kg
CCOc1ccc(NC(=S)N(CCO)Cc2cc3cc(C)cc(C)c3[nH]c2=O)cc1  oral bioavailability (C57BL/6J mouse, plasma; oral, 3 mg/kg, with: ABT 50 mg/kg oral pretreatment 2 h before): 99%
CS/C(S)=N/CCCC[S+](C)[O-] (racemic)  mRNA fold change (RT-PCR, item: Cyp2c6; rat, colon; oral gavage, 200 mg/kg, dosed for four days; relative to: vehicle): 0.198
[2H]C([2H])([2H])Oc1cc2c(cc1OC([2H])([2H])[2H])C1CC(=O)C(CC(C)C)CN1CC2 (stereo not shown)  geometric mean ratio AUCinf (item: total (α+β)-HTBZ; human, fasted; oral, 15 mg single dose; relative to: tetrabenazine 25 mg fasted): 115%
CC(C)C[C@H](NC(=O)[C@H](CCCNC(=N)N)NC(=S)Nc1ccc(C[C@H]2CN(CC(=O)O)CCN(CC(=O)O)CCN2CC(=O)O)cc1)C(=O)N[C@@H](CC(N)=O)C(=O)N[C@H](C(=O)NCC(=O)NCC(=O)N[C@H](C(=O)N[C@@H](Cc1ccc(O)cc1)C(=O)N[C@@H](Cc1ccccc1)C(=O)N[C@@H](CC(C)C)C(=O)N[C@H](C(=O)N[C@H](C(=O)N[C@@H](CCCNC(=N)N)C(=O)N[C@@H](CCC(N)=O)C(=O)O)[C@@H](C)O)[C@@H](C)O)[C@@H](C)O)C(C)C [fluorine-18 labelled]  intact parent radiotracer (radio-HPLC; mouse (HepG2 tumour-bearing), blood; intravenous, 5.55 MBq, 1 h): 96.7 ± 1.55%

For quick reference, copied from above:
CC1(C)C(=CC=C2CCCC(C=CC3=[N+](CCCCS(=O)(=O)[O-])c4ccccc4C3(C)C)=C2Cl)N(CCCCCC(=O)O)c2ccccc21  tumour fluorescence per volume (NIR fluorescence imaging; nude mouse, MCF7 xenograft; 17 nmol/mouse, 5 d; relative to: Cy7): ~4 fold
Cc1c2oc3c(C)ccc(C(=O)N[C@@H]4C(=O)N[C@H](C(C)C)C(=O)N5CCC[C@H]5C(=O)N(C)CC(=O)N(C)[C@@H](C(C)C)C(=O)O[C@@H]4C)c3nc-2c(C(=O)N[C@@H]2C(=O)N[C@H](C(C)C)C(=O)N3CCC[C@H]3C(=O)N(C)CC(=O)N(C)[C@@H](C(C)C)C(=O)O[C@@H]2C)c(N)c1=O  half-life (mouse, Abcc2−/− knockout, FVB background, liver; intravenous, 0.5 mg/kg): 2.44 h
O=C(/C=C/c1ccc(O)c(O)c1)O[C@H](Cc1ccc(O)c(O)c1)C(=O)O  CL/F (UPLC-MS/MS; Wistar rat, microcirculation dysfunction model, plasma; oral, 100 mg/kg Salvia miltiorrhiza stem-leaf extract FS): 2040 ± 173 mL/min/kg
